Assay results collected from several papers.
Parts stem from different laboratories: compare values within a part only. “And” joins repeats or separate records; there may be more than shown.

Set 1 — method: CellTiter-Glo; concentration: 0.1 µM; notes: mean of five organoid lines; relative to: DMSO
Cell line: normal adjacent epithelium patient-derived organoids
Structure (SMILES) | viability [%]
COCCOc1nc(-c2ccc(Cl)nc2)nc2c1CN(C(=O)c1ncn3ccccc13)CC2 | 116
CN(C)C(=O)Cn1cc(-c2nc([C@@](C)(c3ccc(-c4cnc(N)nc4)cc3)C3CC3)no2)cn1 | 101
CCS(=O)(=O)c1cc2cc(C[C@@](O)(CC(C)(C)c3ccc(F)cc3C(N)=O)C(F)(F)F)[nH]c2cn1 | 113
O=C(Nc1ccc(Oc2ccc(F)cc2)cc1)N1CCc2ncccc2[C@H]1c1ccc(F)cc1 | 111
CNC(=O)c1ccc(Nc2ncc(C(F)(F)F)c(NCc3nccnc3N(C)S(C)(=O)=O)n2)cc1 | 96.9
CS(=O)(=O)N1CCCC(NC(=O)[C@H](CCC2CCCCC2)NC(=O)c2ccc(CNC(=O)c3cnc4ccccn34)cc2)C1 (stereo partly drawn) | 125
Cc1cc(Nc2nccc(C)n2)cc(-c2cnc([C@@]3(O)CC[C@H](C(=O)O)C(C)(C)C3)s2)c1 | 108
CS(=O)(=O)NCC[C@H](NC(=O)c1cncc2c1cnn2-c1ccc(F)cc1)c1ccnc(S(C)(=O)=O)c1 | 127
O=C(N[C@H]1CCCCC/C=C\C2C[C@@]2(C(=O)O)NC(=O)[C@@H]2C[C@@H](Oc3ccncc3)CN2C1=O)OC1CCCC1 (stereo partly drawn) | 110
O=S(=O)(NC1CCC(c2cc(F)ccc2F)(S(=O)(=O)c2ccc(Cl)cc2)CC1)C(F)(F)F (stereo not drawn) | 101
O=C(Nc1ccc(-n2nc(-c3cccnc3)cc2C(F)(F)F)cn1)c1ccc(-c2ccccc2)c(F)c1 | 110
CCOC(=O)c1cc2cc(-c3cc(C(=O)NCc4ccc(C(=O)O)cc4)nn3C)ccc2[nH]1 | 104
O=C(NCCCC1CCCCC1)c1ccc(CNC(=O)c2cnn(-c3ccccc3)c2C(F)(F)F)cc1 | 113
O=C(O)[C@H]1[C@H](Cn2nnc3ccccc3c2=O)CC[C@@H]1C(=O)c1ccc(OCCC2CCOCC2)cc1 | 120
O[C@]1(C(F)(F)F)CCCC[C@H]1Nc1ccc(F)cc1 | 102
Cc1c(NC(=O)c2cc(C(N)=O)nc3cc(F)ccc23)c(C(F)(F)F)nn1Cc1ccc(C(C)(C)C)cc1 | 100
CC(C)(C)OC(=O)N1CCCC1CNC1CCC(c2cc(F)ccc2F)(S(=O)(=O)c2ccc(Cl)cc2)CC1 (stereo not drawn) | 102
CCCOc1ccc([C@H]2[C@H](C(=O)O)[C@@H](c3ccc4c(c3)OCO4)CN2CC(=O)Nc2c(CC)cccc2CC)cc1 | 119

Set 2 — method: logD(dd/w) and ALogP; notes: MRN method
Compound | lipophilic permeability efficiency
CC[C@@H]1C(=O)N(C)[C@@H](C)C(=O)N[C@@H](CC(C)C)C(=O)N2CCC[C@@H]2C(=O)N(C)[C@@H](C)C(=O)N[C@@H](CC(C)C)C(=O)N1C | 3.57
CC(C)C[C@@H]1NC(=O)[C@H](Cc2ccc(O)cc2)N(C)C(=O)[C@H]2CCCN2C(=O)[C@H](CC(C)C)NC(=O)[C@H](CC(C)C)N(C)C(=O)[C@@H](Cc2ccccc2)N(C)C1=O | 1.72
CC[C@H]1NC(=O)[C@H](CC(C)C)NC(=O)[C@H](Cc2ccccc2)NC(=O)[C@H]2CCCN2C(=O)[C@H](CC(C)C)NC(=O)[C@H](C)NC1=O | 1.72
CC(C)C[C@@H]1NC(=O)[C@H](Cc2ccccc2)N(C)C(=O)[C@H]2CCCN2C(=O)[C@H](CC(C)C)NC(=O)[C@H](C)N(C)C(=O)[C@@H](CC(C)C)N(C)C1=O | 3.72
CC(C)C[C@@H]1NC(=O)[C@H](Cc2ccc(O)cc2)NC(=O)[C@H]2CCCN2C(=O)[C@H](CC2CCCCC2)NC(=O)[C@H](CC2CCCCC2)NC(=O)[C@@H](C)NC1=O | 0.22
CC(C)C[C@@H]1NC(=O)[C@H](Cc2ccccc2)NC(=O)[C@H]2CCCN2C(=O)[C@H](CC(C)C)NC(=O)[C@H](C)NC(=O)[C@@H](C)NC1=O | 1.84
CC(C)C[C@@H]1NC(=O)[C@H](Cc2ccc(O)cc2)NC(=O)[C@H]2CCCN2C(=O)[C@H](CC(C)C)NC(=O)[C@H](CC2CCCCC2)NC(=O)[C@@H](CC(C)C)NC1=O | -0.188
CC[C@H]1NC(=O)[C@H](CC(C)C)NC(=O)[C@H](Cc2ccc(O)cc2)NC(=O)[C@H]2CCCN2C(=O)[C@H](CC2CCCCC2)NC(=O)[C@H](CC2CCCCC2)NC1=O | -0.0445
CC[C@@H]1C(=O)N(C)[C@@H](CC(C)C)C(=O)N[C@@H](CC(C)C)C(=O)N2CCC[C@@H]2C(=O)N(C)[C@@H](Cc2ccccc2)C(=O)N[C@@H](CC(C)C)C(=O)N1C | 3.84
CC(C)C[C@@H]1NC(=O)[C@H](C)N(C)C(=O)[C@H]2CCCN2C(=O)[C@H](CC(C)C)NC(=O)[C@H](C)N(C)C(=O)[C@@H](C)N(C)C1=O | 3.83

Set 3 — organism: Sarcocystis neurona; read-out: parasite growth; concentration: 10 µM; time: 96 h; notes: second screen; relative to: untreated
Compound | log2 fold change
CC[C@H]1OC(=O)[C@H](C)[C@@H](O[C@H]2C[C@@](C)(OC)[C@@H](O)[C@H](C)O2)[C@H](C)[C@@H](O[C@@H]2O[C@H](C)C[C@H](N(C)C)[C@H]2O)[C@](C)(O)C[C@@H](C)CN(C)[C@H](C)[C@@H](O)[C@]1(C)O | 0.08
O=C(c1ccc(OCCN2CCCCC2)cc1)c1c(-c2ccc(O)cc2)sc2cc(O)ccc12 | 0.33
Cc1nc2n(c(=O)c1CCN1CCC(c3noc4cc(F)ccc34)CC1)CCCC2 | 0.24
COc1ccnc(C[S+]([O-])c2nc3ccc(OC(F)F)cc3[nH]2)c1OC (stereo not drawn) | 0.95
CCCNC(=O)NS(=O)(=O)c1ccc(Cl)cc1 | 0.32
CC(=O)[C@@]1(O)CC[C@H]2[C@@H]3C[C@H](C)C4=CC(=O)C=C[C@]4(C)[C@@]3(F)[C@@H](O)C[C@@]21C | 0.61
CC(=O)/N=c1/sc(S(N)(=O)=O)nn1C | 0.43
CCc1cccc2c3c([nH]c12)C(CC)(CC(=O)O)OCC3 (stereo not drawn) | 0.52
CC(=O)OCC(=O)[C@@]12OC(C)(C)O[C@@H]1C[C@H]1[C@@H]3C[C@H](F)C4=CC(=O)C=C[C@]4(C)[C@@]3(F)[C@@H](O)C[C@@]12C | 0.65
CN(C)[C@@H]1C(O)=C(C(N)=O)C(=O)[C@@]2(O)C(O)=C3C(=O)c4c(O)cccc4[C@@](C)(O)[C@H]3C[C@@H]12 | 0.39
Nc1nc(N)nc(-c2cc(Cl)ccc2Cl)n1 | -0.27
C#C[C@]1(O)CC[C@H]2[C@@H]3CCC4=CC(=O)CC[C@@H]4[C@H]3CC[C@@]21C | -0.07
O=C(CCNNC(=O)c1ccncc1)NCc1ccccc1 | 0.19

Other studies, line by line
Compound | test | test system | conditions | scale | quantity | value
CC(=O)N[C@@H](Cc1c[nH]c2ccccc12)C(=O)N[C@@H](CCC(=O)C=[N+]=[N-])C(=O)OC(C)C | UPLC-MS/MS | EL4 tumor, C57BL/6 CES1-/- mice, tumor | subcutaneous, 0.3 mg/kg DON equivalent daily, 5 days | higher = more metabolite | pyruvate level | 1.19e+07 a.u. and 6.01e+06 a.u. and 1.07e+07 a.u. and 6.85e+06 a.u. and 1.43e+07 a.u. and 1.3e+07 a.u.

A few entries again (set 3):
Compound | log2 fold change
CCCNC(=O)NS(=O)(=O)c1ccc(Cl)cc1 | 0.32
O=C(CCNNC(=O)c1ccncc1)NCc1ccccc1 | 0.19
Cc1nc2n(c(=O)c1CCN1CCC(c3noc4cc(F)ccc34)CC1)CCCC2 | 0.24
CCc1cccc2c3c([nH]c12)C(CC)(CC(=O)O)OCC3 (stereo not drawn) | 0.52
COc1ccnc(C[S+]([O-])c2nc3ccc(OC(F)F)cc3[nH]2)c1OC (stereo not drawn) | 0.95
CC(=O)OCC(=O)[C@@]12OC(C)(C)O[C@@H]1C[C@H]1[C@@H]3C[C@H](F)C4=CC(=O)C=C[C@]4(C)[C@@]3(F)[C@@H](O)C[C@@]12C | 0.65
